{"data": "Assay results from different studies", "cell line": "HeLa", "note": "Each line is one published result; not all experiments were run side by side. Several values in a cell are separate wells, animals, samples, runs or records. Numbers after ± are the reported error."}
{"SMILES": "Cc1nn(-c2ccccc2)c(O)c1C(c1cccs1)c1c(C)nn(-c2ccccc2)c1O", "effect on": "cell growth or viability", "method": "MTT", "time": "48 h", "IC50": "30.8 µM"}
{"SMILES": "C[C@@H](N)[C@H](O)CCCCCCCC(=O)CCCCCCCCCCCCCC[C@@H](O[C@@H]1O[C@H](CO)[C@@H](O)[C@H](O)[C@H]1O)[C@@H](N)CO", "effect on": "cell growth or viability", "IC50": "24.9 µM"}
{"SMILES": "CC1=C(I)C(C)=[N+]2C1=C(c1ccc(OCCn3cc(CNC(=O)CSC[C@H](NC(=O)c4ccc(-c5nnc(C)nn5)cc4)C(=O)N[C@H](CCCNC(=N)N)C(=O)N[C@@H](CC4CCCCC4)C(=O)N[C@H](CCCNC(=N)N)C(=O)N[C@@H](CC4CCCCC4)C(=O)N[C@H](CCCNC(=N)N)C(=O)N[C@@H](CC4CCCCC4)C(=O)N[C@H](CCCNC(=N)N)C(N)=O)nn3)cc1)c1c(C)c(I)c(C)n1[B-]2(F)F", "effect on": "phototoxicity", "time": "2 h plus 18 h", "setting": "2.5% FBS", "together with": "irradiation 525 nm for 160 s", "IC50": "0.598 ± 0.037 µM"}
{"SMILES": "C[C@H]1O[C@@H](O[C@H]2CC[C@@]3(C)[C@H](CC[C@@H]4[C@@H]3CC[C@]3(C)[C@@H](C5=CC(=O)OC5)[C@@H](O)C[C@]43O)C2)C[C@H](O)[C@@H]1O", "effect on": "cell growth or viability", "method": "MTT", "time": "48 h", "IC50": "0.16 µM"}
{"SMILES": "COc1cc(/C=C(\\C#N)C(=O)Nc2nnc(C(F)(F)F)s2)ccc1OC(=O)N1CCN(C(=O)CCCC(=O)NCCCC[C@@H]2NC(=O)[C@@H](Cc3ccc(O)cc3)NC(=O)[C@H](CC(=O)O)NC(=O)CNC(=O)[C@H](CCCNC(=N)N)NC2=O)CC1", "effect on": "cell growth or viability", "method": "MTT", "time": "48 h", "IC50": "> 100 µM"}
{"SMILES": "O=C(Cc1ccc2ccccc2c1)N[C@H](Cc1ccccc1)C(=O)N[C@H](Cc1ccccc1)C(=O)N[C@H](Cc1ccc(O)cc1)C(=O)N[C@H](Cc1ccc(O)cc1)C(=O)O", "effect on": "cell growth or viability", "method": "MTT", "IC50": "> 500 mg/L"}
{"SMILES": "CC[C@H](C)[C@@H]1NC(=O)[C@H](Cc2c[nH]c3ccccc23)NC(=O)[C@H](C)NC(=O)[C@H](C(C)C)NC(=O)[C@H](CC(C)C)NC(=O)[C@H](Cc2c[nH]c3ccccc23)NC1=O", "effect on": "cell growth or viability", "method": "MTT", "time": "48 h", "IC50": "52.1 mg/L"}
{"SMILES": "C#CCCCC[C@H](C)C[C@@H](C)C(=O)N(C)[C@H](C(=O)N(C)[C@@H](Cc1ccccc1)C(=O)N1CCC[C@H]1C(=O)N1CCC[C@H]1C(C)=O)C(C)C", "effect on": "cell growth or viability", "method": "SRB", "IC50": "~3 µM and 3 µM"}
{"SMILES": "CC(C)[C@H](NC(=O)[C@H](CCCNC(=N)N)NC(=O)[C@H](CCC(=O)O)NC(=O)[C@H](CCCNC(=N)N)NC(=O)[C@@H](NC(=O)[C@H](CCCNC(=N)N)NC(=O)[C@@H](NC(=O)[C@@H]1CCCN1C(=O)[C@H]1CCCN1C(=O)[C@@H](NC(=O)[C@H](CCCNC(=N)N)NC(=O)[C@@H](NC(=O)[C@H](CCCNC(=N)N)NC(=O)[C@@H](NC(=O)[C@H](CCCNC(=N)N)NC(=O)[C@@H](NC(=O)[C@@H](N)CCCCN)C(C)C)C(C)C)C(C)C)C(C)C)[C@@H](C)O)C(C)C)C(=O)N[C@@H](CCCCN)C(N)=O", "IC50": "263 µM"}
{"SMILES": "CCCCCCCCc1ccc(C(=O)N[C@@H](CO)C(=O)N[C@H](C(=O)N[C@@H](C)C(=O)N[C@H](C(=O)O)[C@@H](C)CC)[C@@H](C)OP(=O)(O)O)cc1", "effect on": "cell growth or viability", "method": "MTT", "time": "72 h", "IC50": "128 µM"}
{"SMILES": "Cc1nn(-c2ccccc2)c(O)c1C(c1cccc([N+](=O)[O-])c1)c1c(C)nn(-c2ccccc2)c1O", "effect on": "cell growth or viability", "method": "MTT", "time": "48 h", "IC50": "32.4 µM"}
{"SMILES": "CC(C)C[C@H](NC(=O)[C@H](CCCCN)NC(=O)[C@H](CC(C)C)NC(=O)[C@H](CC(C)C)NC(=O)[C@H](CCCCN)NC(=O)[C@H](CCCCN)NC(=O)[C@H](CC(C)C)NC(=O)[C@H](CC(C)C)NC(=O)[C@H](CCCCN)NC(=O)[C@H](CC(C)C)NC(=O)[C@H](CC(C)C)NC(=O)[C@H](CCCCN)NC(=O)[C@H](CCCCN)NC(=O)[C@H](CC(C)C)NC(=O)[C@@H](N)CSSC[C@H](N)C(=O)N[C@@H](CC(C)C)C(=O)N[C@@H](CCC(=O)O)C(=O)N[C@@H](CCC(=O)O)C(=O)N[C@@H](CC(C)C)C(=O)N[C@@H](CC(C)C)C(=O)N[C@@H](Cc1c[nH]cn1)C(=O)N[C@@H](Cc1c[nH]cn1)C(=O)N[C@@H](CC(C)C)C(=O)N[C@@H](CCC(=O)O)C(=O)N[C@@H](CCC(=O)O)C(=O)N[C@@H](CC(C)C)C(=O)N[C@@H](CC(C)C)C(=O)N[C@@H](Cc1c[nH]cn1)C(=O)N[C@@H](Cc1c[nH]cn1)C(N)=O)C(N)=O", "effect on": "cell growth or viability", "method": "MTT", "pH": "pH 7.4", "IC50": "> 100 µM"}
{"SMILES": "CC1=CC=c2ccc3c4c2[N]1[Re](=[C]=O)(=[C]=O)(=[C]=O)([C]#[N+]c1ccc(Cl)cc1)[N]4C(C)=CC=3.O=S(=O)([O-])C(F)(F)F", "effect on": "cell growth or viability", "method": "MTT", "time": "48 h", "IC50": "9.3 µM"}
{"SMILES": "CC(C)C[C@H](NC(=O)[C@H](CC(C)C)NC(=O)[C@H](CCC(=O)O)NC(=O)[C@H](Cc1c[nH]cn1)NC(=O)[C@H](CC(C)C)NC(=O)[C@H](Cc1c[nH]cn1)NC(=O)[C@H](CCC(=O)O)NC(=O)[C@H](CC(C)C)NC(=O)[C@H](CC(C)C)NC(=O)[C@H](CCC(=O)O)NC(=O)[C@H](Cc1c[nH]cn1)NC(=O)[C@@H](N)CC(C)C)C(=O)N[C@@H](CCC(=O)O)C(=O)N[C@@H](Cc1c[nH]cn1)C(N)=O", "effect on": "cell growth or viability", "method": "MTT", "pH": "pH 7.4", "IC50": "> 100 µM"}
{"SMILES": "COc1cc(C=CC(=O)CC(=O)C=Cc2ccc(OC(=O)CCC(=O)OC3OC4OC5(C)CCC6C(C)CCC(C3C)C46OO5)c(OC)c2)ccc1OC(=O)CCC(=O)OC1OC2OC3(C)CCC4C(C)CCC(C1C)C24OO3 (centres unmarked)", "effect on": "cell growth or viability", "method": "MTT", "IC50": "2.41 µM"}
{"SMILES": "O=C(Cc1ccc2ccccc2c1)N[C@H](Cc1ccccc1)C(=O)N[C@H](Cc1ccccc1)C(=O)N[C@H](Cc1ccc(O)cc1)C(=O)N[C@H](Cc1ccc(OP(=O)(O)O)cc1)C(=O)O", "effect on": "cell growth or viability", "method": "MTT", "IC50": "177 mg/L"}
{"SMILES": "CC(C)C[C@H](NC(=O)[C@H](CC(C)C)NC(=O)[C@H](Cc1c[nH]cn1)NC(=O)[C@H](CCC(=O)O)NC(=O)[C@H](CC(C)C)NC(=O)[C@H](Cc1c[nH]cn1)NC(=O)[C@H](CCC(=O)O)NC(=O)[C@H](CC(C)C)NC(=O)[C@H](CC(C)C)NC(=O)[C@H](Cc1c[nH]cn1)NC(=O)[C@H](CCC(=O)O)NC(=O)[C@@H](N)CC(C)C)C(=O)N[C@@H](CCC(=O)O)C(=O)N[C@@H](Cc1c[nH]cn1)C(N)=O", "effect on": "cell growth or viability", "method": "MTT", "pH": "pH 7.4", "IC50": "> 100 µM"}
{"note": "A few entries again:"}
{"SMILES": "CC(C)C[C@H](NC(=O)[C@H](CCCCN)NC(=O)[C@H](CC(C)C)NC(=O)[C@H](CC(C)C)NC(=O)[C@H](CCCCN)NC(=O)[C@H](CCCCN)NC(=O)[C@H](CC(C)C)NC(=O)[C@H](CC(C)C)NC(=O)[C@H](CCCCN)NC(=O)[C@H](CC(C)C)NC(=O)[C@H](CC(C)C)NC(=O)[C@H](CCCCN)NC(=O)[C@H](CCCCN)NC(=O)[C@H](CC(C)C)NC(=O)[C@@H](N)CSSC[C@H](N)C(=O)N[C@@H](CC(C)C)C(=O)N[C@@H](CCC(=O)O)C(=O)N[C@@H](CCC(=O)O)C(=O)N[C@@H](CC(C)C)C(=O)N[C@@H](CC(C)C)C(=O)N[C@@H](Cc1c[nH]cn1)C(=O)N[C@@H](Cc1c[nH]cn1)C(=O)N[C@@H](CC(C)C)C(=O)N[C@@H](CCC(=O)O)C(=O)N[C@@H](CCC(=O)O)C(=O)N[C@@H](CC(C)C)C(=O)N[C@@H](CC(C)C)C(=O)N[C@@H](Cc1c[nH]cn1)C(=O)N[C@@H](Cc1c[nH]cn1)C(N)=O)C(N)=O", "effect on": "cell growth or viability", "method": "MTT", "pH": "pH 7.4", "IC50": "> 100 µM"}
{"SMILES": "CC1=CC=c2ccc3c4c2[N]1[Re](=[C]=O)(=[C]=O)(=[C]=O)([C]#[N+]c1ccc(Cl)cc1)[N]4C(C)=CC=3.O=S(=O)([O-])C(F)(F)F", "effect on": "cell growth or viability", "method": "MTT", "time": "48 h", "IC50": "9.3 µM"}
